Experimental data collected from several papers.
Compare with care: the assays were run in different laboratories. Several values in a cell are separate wells, animals, samples, runs or records.
Organism: Staphylococcus aureus

SMILES	assay	test system	setting	MIC
CC[C@H](C)[C@H](NC(=O)[C@H](CCN)NC(=O)CCCCCCCCCCCNC(=O)CCCCCOC(=O)c1cn(C2CC2)c2cc(N3CCNCC3)c(F)cc2c1=O)C(=O)N[C@@H](CCN)C(=O)N[C@H](Cc1ccccc1)C(=O)N[C@@H](CC(C)C)C(=O)N[C@@H](CCN)C(=O)N[C@@H](C(=O)N[C@@H](CC(C)C)C(=O)N[C@@H](CO)C(N)=O)C(C)C	–	–	24 h, 37 °C	6.25 µM and 3.12 µM
CC[C@H](C)[C@H](NC(=O)[C@@H]1CC(=O)N[C@@H](CO)C(=O)N[C@@H](CC(C)C)C(=O)NCC(=O)N[C@@H](CO)C(=O)N[C@@H](CO)C(=O)N2CCC[C@H]2C(=O)N[C@@H](Cc2ccc(O)cc2)C(=O)N[C@@H](CC(N)=O)C(=O)N1)C(=O)N[C@@H](CC(C)C)C(=O)NCC(=O)N[C@@H](Cc1ccc(O)cc1)C(=O)N1CCC[C@H]1C(=O)N[C@@H](C)C(=O)N[C@@H](CC(C)C)C(=O)N[C@H](C(=O)N[C@H](C(=O)N[C@H](C(=O)N[C@@H](Cc1ccc(O)cc1)C(=O)N1CCC[C@H]1C(=O)O)[C@@H](C)CC)C(C)C)[C@@H](C)CC	–	–	–	128 µg/mL
CC[C@H](C)[C@@H]1NC(=O)[C@@H]([C@@H](C)O)NC(=O)CNC(=O)[C@H](CC(=O)O)NC(=O)CNC(=O)[C@H](CC(=O)O)NC(=O)[C@H](CC(=O)O)NC(=O)[C@H]2CCCCN2C(=O)[C@@H](NC(=O)[C@H](CC(=O)O)NC(=O)/C=C/CCCCCCCCCC(C)C)CNC(=O)[C@@H]2CCCN2C1=O	–	MRSA USA300	16 h, 37 °C, with: Ca2+ 10 mM	16 µg/mL
S=C(NCc1ccccn1)NCc1ccccn1	microbial growth, well diffusion	–	–	14.8 µg/mL
CC[C@@H](C)[C@@H](NC(=O)[C@@H](CCCCN)NC(=O)[C@H]1CCCN1C(=O)[C@H](NC(=O)[C@@H](CC(C)C)NC(=O)[C@@H](CCCCN)NC(=O)[C@@H](CC(C)C)NC(=O)[C@H](NC(=O)[C@@H](CO)NC(=O)CNC(=O)[C@@H](Cc1ccccc1)NC(=O)[C@H](N)Cc1ccccc1)C(C)C)[C@H](C)CC)C(=O)N[C@H](CC(C)C)C(N)=O	broth microdilution	USA300 MRSA	–	3.12 µM
CN1C(=O)[C@@H]2NC(=O)[C@@H]3NC(=O)[C@@H](c4ccc(O)cc4)NC(=O)[C@H](NC(=O)C(NCc4cccc(F)c4F)c4ccc(O)cc4)Cc4c[nH]c5cc(ccc45)-c4cc3cc(c4O)Oc3ccc(cc3)C[C@H]1C(=O)N[C@@H](C(=O)O)c1ccc(O)c(c1)Oc1ccc2cc1 (stereo partly drawn)	–	ATCC 33591 MRSA, Mueller-Hinton broth	–	16 µg/mL
O=C1c2ccccc2NC(c2ccc(Cl)c([N+](=O)[O-])c2)N1/N=C/c1ccc(Cl)c([N+](=O)[O-])c1 (stereo not drawn)	microbial growth, broth dilution	MRSA	24 h, drug-resistant strain, clinical isolate	> 256 µg/mL
CCCCCCCCCCCCCCCC(=O)N[C@@H](Cc1c[nH]cn1)C(=O)N[C@@H](Cc1ccccc1)C(=O)N[C@@H](CCCNC(=N)N)C(=O)N[C@@H](Cc1c[nH]c2ccccc12)C(=O)NCC(=O)N[C@@H](CCCCN)C(=O)N1CCC[C@H]1C(=O)N[C@H](C(N)=O)C(C)C	broth microdilution	MRSA ATCC 33591	Mueller-Hinton broth	> 45.5 µM
CCCCCCCCCCCCCC[S+]([O-])CC1OC(OC2C(N)CC(N)C(OC3OC(CN)C(O)CC3N)C2O)C(O)C(N)C1O (mixture of isomers)	–	methicillin-resistant	–	18.8 µg/mL
CCCCCCCC(=O)N(C)[C@H](CO)C(=O)N[C@H](C)C(=O)NCC(=O)N(C)[C@@H]1C(=O)N[C@@H](C)C(=O)N[C@H](C(=O)O)Cc2ccc(O)c(c2)-c2cc1ccc2O	broth microdilution	NCTC 8325 lepB P29S (PAS8001)	24 h, 37 °C	> 64 µg/mL
C/C(=N/NC(=N)N)c1nnn(-c2ccc(C#Cc3ccsc3)cc2)c1C	broth microdilution	MRSA USA300 NRS384	–	16 µg/mL
CC(C)=CCc1cc2c(cc1O)OCc1c-2oc2c(CC=C(C)C)c(O)ccc12	–	–	–	inactive

A few entries again:
SMILES	assay	test system	setting	MIC
S=C(NCc1ccccn1)NCc1ccccn1	microbial growth, well diffusion	–	–	14.8 µg/mL
CC[C@@H](C)[C@@H](NC(=O)[C@@H](CCCCN)NC(=O)[C@H]1CCCN1C(=O)[C@H](NC(=O)[C@@H](CC(C)C)NC(=O)[C@@H](CCCCN)NC(=O)[C@@H](CC(C)C)NC(=O)[C@H](NC(=O)[C@@H](CO)NC(=O)CNC(=O)[C@@H](Cc1ccccc1)NC(=O)[C@H](N)Cc1ccccc1)C(C)C)[C@H](C)CC)C(=O)N[C@H](CC(C)C)C(N)=O	broth microdilution	USA300 MRSA	–	3.12 µM
